Experimental data collected from several papers.
Parts stem from different laboratories: compare values within a part only. Changes are numbered by the printed parent chain.

Series 1
Target: Interferon regulatory factor 7, full length, phosphomimetic (IRF7, Homo sapiens, UniProt Q92985, residues 1-503, S471D/S472D/S475D/S476D/S477D/S483D/S484D/S487D)
Method: protein-binding microarray
Molecule type: double-stranded DNA, one strand shown
Sample: in vitro
Concentration: 2200 nM top
Notes: 60-bp whole probe
Together with: salmon DNA 0.4 mg/ml
Reference: random background probes
Direction: higher = stronger binding
Constant ends, left off below: GCCTAGCAC … GTCTTGATTCGCTTGACGCTGCTG
Construct (chain): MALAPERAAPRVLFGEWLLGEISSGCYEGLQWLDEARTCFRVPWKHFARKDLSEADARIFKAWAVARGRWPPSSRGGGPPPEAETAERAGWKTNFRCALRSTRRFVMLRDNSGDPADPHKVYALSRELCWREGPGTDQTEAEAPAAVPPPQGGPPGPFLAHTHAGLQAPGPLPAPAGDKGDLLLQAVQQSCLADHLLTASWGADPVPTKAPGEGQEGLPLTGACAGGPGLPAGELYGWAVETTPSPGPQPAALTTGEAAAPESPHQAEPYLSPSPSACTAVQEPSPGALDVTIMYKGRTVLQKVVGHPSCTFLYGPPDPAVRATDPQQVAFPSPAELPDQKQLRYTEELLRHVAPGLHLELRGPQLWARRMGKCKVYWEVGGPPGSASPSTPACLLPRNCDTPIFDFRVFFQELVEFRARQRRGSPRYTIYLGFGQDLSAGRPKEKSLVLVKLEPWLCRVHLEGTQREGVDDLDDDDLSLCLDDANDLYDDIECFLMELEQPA
`GACGGTTTCGGTTGCGGGACGTGCTAG`: “fitted relative affinity” 7.73 z-score.
`GACGATATCGGATTTCGAGACGTGCTA` — result for “fitted relative affinity”: 0.626 z-score.
For `TTAGGACGGGGACTGGGTTAGTGCTAG`, “fitted relative affinity” read -0.49 z-score.
For `TTAGAACGGAGTATCGATTAGTGCTAG`, “fitted relative affinity” read -0.364 z-score.
For `GACGGTTTCTGTTCCGGGACGTGCTAG`, “fitted relative affinity” read 4.81 z-score.
`TCACTCTTCTGCTTCCTACTGTGCTAG` — result for “fitted relative affinity”: 2.6 z-score.
Under “fitted relative affinity”, `TCATTTCCATCTCTCAAACTGTGCTAG` is recorded as 3.09 z-score.
`GACGGTTCCCTTTTCCTGACGTGCTAG` — result for “fitted relative affinity”: 2.69 z-score.

Series 2
Target: vanadate, free oxyanion
Method: microfluidic competitive inhibition
Sample: in vitro, cell-free expressed
Concentration: not given
Notes: derived from inhibition constants, unchanged parent 676 nM
Direction: lower = stronger binding
Starting sequence: PafA, mature enzyme, eGFP fusion (Elizabethkingia meningoseptica, UniProt Q9KJX5); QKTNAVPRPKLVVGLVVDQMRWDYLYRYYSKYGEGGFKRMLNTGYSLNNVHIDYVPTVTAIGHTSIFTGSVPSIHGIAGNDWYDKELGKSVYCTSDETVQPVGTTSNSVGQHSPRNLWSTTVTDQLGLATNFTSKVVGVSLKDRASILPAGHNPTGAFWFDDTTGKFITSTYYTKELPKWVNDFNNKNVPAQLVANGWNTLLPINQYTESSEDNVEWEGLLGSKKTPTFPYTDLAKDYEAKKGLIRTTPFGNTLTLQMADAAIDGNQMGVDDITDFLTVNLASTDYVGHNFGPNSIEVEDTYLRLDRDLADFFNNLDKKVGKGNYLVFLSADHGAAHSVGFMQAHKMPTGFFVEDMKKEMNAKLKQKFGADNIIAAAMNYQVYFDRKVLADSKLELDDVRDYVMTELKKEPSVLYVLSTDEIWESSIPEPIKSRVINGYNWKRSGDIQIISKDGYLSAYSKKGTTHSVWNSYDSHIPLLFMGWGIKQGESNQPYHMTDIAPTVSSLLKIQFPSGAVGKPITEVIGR
Under “oxyanion analog dissociation constant”, `E216V` is recorded as 681 nM.
`P519G` — result for “oxyanion analog dissociation constant”: 607 nM.
Under “oxyanion analog dissociation constant”, `V137G` is recorded as 1.05 µM.
`N42V`: “oxyanion analog dissociation constant” 675 nM.
`D81G`: “oxyanion analog dissociation constant” 1.78 µM.

Series 3
Target: CCND2, cyclin fold, Cln2 fusion (human)
Method: yeast growth competition, sequencing
Sample: yeast
Notes: strong parent motif
Reference: not given
Direction: higher = stronger binding
Starting sequence: viral docking peptide; YKVKRRLVFGADD
For `V8Q`, “normalised enrichment score” read 1.
Under “normalised enrichment score”, `G10P` is recorded as 1.29.
`D12N`: “normalised enrichment score” 1.13.
For `F9C`, “normalised enrichment score” read 0.521.
For `K2L`, “normalised enrichment score” read 0.794.
`V8A` — result for “normalised enrichment score”: 0.365.
Under “normalised enrichment score”, `K2S` is recorded as 2.04.
For `G10Q`, “normalised enrichment score” read 1.02.
For `V3P`, “normalised enrichment score” read 0.663.
`V8H`: “normalised enrichment score” 0.852.
`G10D` — result for “normalised enrichment score”: 2.89.
For `G10H`, “normalised enrichment score” read 0.871.
Under “normalised enrichment score”, `V3I` is recorded as 1.37.
`L7E`: “normalised enrichment score” -0.09.
`K2N` — result for “normalised enrichment score”: 1.73.
`L7W` — result for “normalised enrichment score”: -0.306.

Other studies, line by line
For `UFL1 (Homo sapiens, UniProt O94874)`, interaction screen read “cross-linked” (CDK5RAP3 (Homo sapiens, UniProt Q96JB5); cross-linking MS; hits only).
With CNCc1ccccc1-c1csc([C@H](C)Nc2nc(C)nc3cc(OC)c(OC)cc23)c1 the remaining binding was 81% (CDPK1 (Plasmodium falciparum, UniProt P62344); cell-free assay, competition with immobilised ligand; 1 µM).
`PHB1 (Homo sapiens, UniProt P35232)`: cross-linked residues “K202 to K195” (OCIAD1 (Homo sapiens, UniProt Q9NX40); cross-linking MS; cell fractions; together with: DSSO).
`CYC1 (Homo sapiens, UniProt P08574)` — result for interaction screen: “cross-linked” (UQCRC1 (Homo sapiens, UniProt P31930); cross-linking MS; hits only).
Under interaction screen, `TPR (Homo sapiens, UniProt P12270)` is recorded as “cross-linked” (NUP153 (Homo sapiens, UniProt P49790); cross-linking MS; hits only).

Some of these lines once more (series 3):
`V8H`: “normalised enrichment score” 0.852.
`G10D` — result for “normalised enrichment score”: 2.89.
For `G10H`, “normalised enrichment score” read 0.871.
